Measured values pooled from the literature.
Each numbered part is a random draw from the data of one study; scales do not carry over between parts. Positions count from the first letter of the parent shown.

Series 1
Target: ABI1, truncated, D143A, DHFR fusion (Arabidopsis thaliana)
Method: DHFR PCA, deep sequencing
Matrix: yeast
Setting: methotrexate growth selection, single substitutions
With: (+)-ABA 200 µM
Baseline: wild-type fitted maximum
Direction: higher = stronger binding
Measurement: relative binding score
Starting sequence: PYL1, truncated, DHFR fusion (Arabidopsis thaliana); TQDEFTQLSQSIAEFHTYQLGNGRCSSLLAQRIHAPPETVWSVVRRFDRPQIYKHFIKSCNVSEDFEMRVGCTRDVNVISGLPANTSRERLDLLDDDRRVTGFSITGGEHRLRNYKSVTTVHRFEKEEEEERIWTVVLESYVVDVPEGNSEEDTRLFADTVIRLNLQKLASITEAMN
S80F: 66.7%
E125Q: 107%
Q10E: 99.9%
L94M: 103%
T173I: 90.6%
I57R: 2.35%
L20Q: 101%
G23H: 95.1%
Q167E: 101%
F124L: 111%
P83S: 72.6%
T154E: 3.95%
E128S: 106%
E14R: 94.7%
T73S: 100%

Series 2
Target: RNA binding protein fox-1 homolog 2, RRM domain, GST-SBP tag (RBFOX2, Homo sapiens, UniProt O43251-10, residues 100-194)
Method: RNA Bind-n-Seq
Form: RNA
Matrix: in vitro
Concentration: 365 nM
Setting: natural RNA segment, single round, ends assumed
Baseline: no-protein control
Direction: higher = stronger binding
Measurement: RBNS enrichment (R)
Target sequence (chain): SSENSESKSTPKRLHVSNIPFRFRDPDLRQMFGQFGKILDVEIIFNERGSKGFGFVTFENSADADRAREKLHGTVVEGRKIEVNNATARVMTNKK
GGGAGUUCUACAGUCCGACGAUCUGCCACAGAACAAACACUACUCUAGCAGAGCCUUUCUUGCACUUUAAAGUGAGAUUAAUUUAGCUGUAAUUUGGUUAAAAACUUCCUAAGAGAGAAAAUUAAGUCUACUGUGGAAUUCUCGGGUGCCAA: 0.402
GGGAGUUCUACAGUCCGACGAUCUCCCAACACAAGACAAAGCUCAGGAUGCUGGUGAUGCUAGGAAGAUGUCCCUCCCCUCACUGCCCCACAUUCUCCCAGUGGCUCUACCAGCCUCACCCAUCAAACCAGUGUGGAAUUCUCGGGUGCCAA: 0.6
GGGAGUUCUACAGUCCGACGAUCCUCAUGGCUCCAUCCUUUUGGUCCCUCGCCACUACCCUUGAAGCUGGCUUCAGUUCCCUGGCUGCUGCUUUGCCUCCUGAAAGCCACUCUGUAGGACCAAGCACUCGGGGUGGAAUUCUCGGGUGCCAA: 0.305
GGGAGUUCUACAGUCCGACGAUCGGAAUAGUGCAACACCCGAGGCCCCAGUCCUGCACCGAGGCUGACCCCAGACCUGCACUGCCUUUGAGCUGGGUCCUAAUUGCACAUGGCUUGUGACGAAUGAAUCUUGCUGGAAUUCUCGGGUGCCAA: 3.08
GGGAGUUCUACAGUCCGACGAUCUGCUGGCUUUAGCCCCAUGCUCAGGGUUCUCUGGGAAGUUUCAGGUUUCCAAGAUAGCACAGUGACCACAAAGGGAGAUUUUAGCAGAGCCAGCCUGCUAGAAGGCAGGAUGGAAUUCUCGGGUGCCAA: 0.314
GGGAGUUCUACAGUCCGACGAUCUCAGUGCAUUUUAUUACUUGCUGAAACAUUCAGGCUUACAUUUCUUAUUAGUUUAGUAUUUUAAAAGAUUUAAUUUUCUGAAUGAGGCAUUUGAAUUGUACCAGCAAUGGUGGAAUUCUCGGGUGCCAA: 1.58
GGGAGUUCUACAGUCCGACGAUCCCAGUAUCCUGCGAGCAGCCUUCAGAUGAAGAUGCAGAACUCUCACCUUCUCCUGCACCAUGCCUGCCUGGAUGCUGCCAUGCUCCCACCUUGAUGAUAAUGGACUGAACUGGAAUUCUCGGGUGCCAA: 0.916
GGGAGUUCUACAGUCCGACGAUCCUCCAACUCCUUCUGGGAAGGUUGAGCUGGCCAGAGCCAAGAAACACUUCCAGGAACAUUAACAUGAAGGGAAGAGGUGAGCCACCCUCCUUGCCUGGCCUUAGCCGUUUUGGAAUUCUCGGGUGCCAA: 0.326

Series 3
Target: CCNB1, cyclin fold, Cln2 fusion (human)
Method: yeast growth competition, sequencing
Matrix: yeast
Setting: weak parent motif
Baseline: not given
Direction: higher = stronger binding
Measurement: normalised enrichment score
Starting sequence: E2F8 docking peptide (human); FVPQRKLEVSTED
V9F: 0.486
S10A: 0.329
D13A: 1.01
V9L: 0.112
L7A: 0.381
V2A: 0.465
V9A: -0.0921
F1A: 0.479

Other studies, line by line
PhoQ, residues 284 288 289 292 302 303 SCEHLI  fold induction (PhoP, residues 12 14 15 18 19 IFFTR (Escherichia coli, UniProt P23836); Sort-seq, item: YFP reporter; E. coli; PhoQ-PhoP variant library, with: 10 µM Mg2+; baseline: high Mg2+ state, higher = stronger signaling): 7.9

For quick reference, copied from above (series 2):
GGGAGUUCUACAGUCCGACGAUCCUCCAACUCCUUCUGGGAAGGUUGAGCUGGCCAGAGCCAAGAAACACUUCCAGGAACAUUAACAUGAAGGGAAGAGGUGAGCCACCCUCCUUGCCUGGCCUUAGCCGUUUUGGAAUUCUCGGGUGCCAA: 0.326
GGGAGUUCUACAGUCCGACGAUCUGCCACAGAACAAACACUACUCUAGCAGAGCCUUUCUUGCACUUUAAAGUGAGAUUAAUUUAGCUGUAAUUUGGUUAAAAACUUCCUAAGAGAGAAAAUUAAGUCUACUGUGGAAUUCUCGGGUGCCAA: 0.402
